Results collected from several papers.
Each numbered part is a random draw from the data of one study; scales do not carry over between parts. Substitutions count along the parent as printed.

Sample 1 — target: CCNE2, cyclin fold, Cln2 fusion (human); method: yeast growth competition, sequencing; medium: yeast; notes: weak parent motif; relative to: not given; direction: higher = stronger binding
Parent: PKN2 docking peptide (human); VSAVQKLDFSDTM; partner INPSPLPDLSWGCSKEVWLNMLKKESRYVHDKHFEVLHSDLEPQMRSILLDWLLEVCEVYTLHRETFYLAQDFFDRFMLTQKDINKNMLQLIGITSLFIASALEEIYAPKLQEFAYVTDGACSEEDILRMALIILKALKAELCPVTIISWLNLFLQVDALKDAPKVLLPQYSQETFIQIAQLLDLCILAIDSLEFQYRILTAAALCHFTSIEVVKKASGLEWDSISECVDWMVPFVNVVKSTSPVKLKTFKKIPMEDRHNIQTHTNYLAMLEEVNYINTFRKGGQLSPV
Substitution | normalised enrichment score
VSAVQVLDFSDTM [K6V] | 0.0348
VSAVQKLDMSDTM [F9M] | -0.44
VSAVQKLHFSDTM [D8H] | 0.293
VSGVQKLDFSDTM [A3G] | -0.497
VSAVQRLDFSDTM [K6R] | 0.117
VSAVQKLDFGDTM [S10G] | 0.387
VSAVQKLDHSDTM [F9H] | -0.321
VSAPQKLDFSDTM [V4P] | 0.486

Sample 2 — method: RNA Bind-n-Seq; molecule type: RNA; medium: in vitro; tested at: 20 nM; notes: 6-mer, flanks averaged, single round; with: 150 mM LiCl; relative to: input library; direction: higher = stronger binding
Target: TAR DNA-binding protein 43, full length, His tag (TARDBP, Homo sapiens, UniProt Q13148, residues 1-414)
Strand | 6-mer enrichment (R)
AGUGGU | 1.28
GUCAAC | 0.824
ACAAAC | 0.81
GAGGGG | 1.47
GAAGCG | 1.02
UUAACC | 0.941
CCGUUG | 0.944
AGUACG | 0.916

Sample 3 — method: RNA Bind-n-Seq; molecule type: RNA; medium: in vitro; tested at: 15 pmol; notes: 4-mer, random 30-nt RNA, single round; with: DMSO vehicle, 2 mM AMP-PNP; relative to: input library; direction: higher = stronger binding
Target: Eukaryotic initiation factor 4A-I (EIF4A1, Homo sapiens, UniProt P60842, residues 1-406, full length assumed)
UniProt P60842, sequence (whole entry, looked up): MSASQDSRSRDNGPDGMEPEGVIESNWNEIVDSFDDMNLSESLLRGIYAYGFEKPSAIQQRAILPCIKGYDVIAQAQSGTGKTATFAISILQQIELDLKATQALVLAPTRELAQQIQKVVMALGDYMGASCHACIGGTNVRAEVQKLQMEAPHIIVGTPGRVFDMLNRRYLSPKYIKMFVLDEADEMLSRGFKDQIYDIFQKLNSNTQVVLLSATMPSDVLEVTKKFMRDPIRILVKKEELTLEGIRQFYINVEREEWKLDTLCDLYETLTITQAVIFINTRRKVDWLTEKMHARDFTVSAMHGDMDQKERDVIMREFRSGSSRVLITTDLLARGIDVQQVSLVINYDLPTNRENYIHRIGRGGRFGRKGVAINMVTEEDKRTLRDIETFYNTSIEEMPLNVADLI
Strand | 4-mer enrichment [fold]
CACU | 1.11
AUUA | 0.985
CGUA | 0.582
UUGA | 1.03
CUCG | 0.909
GGCU | 0.778
AGAU | 0.86
CGGU | 0.926

Single results of other studies
Compound | host | medium | tested at | time | quantity | result
O=c1c2ccccc2[se]n1-c1ccc(S(=O)(=O)Nc2ccccn2)cc1 | human | microsomes or S9 | 2 µM | 0.5 h | remaining compound | 44%

Repeated from above (sample 3):
Strand | 4-mer enrichment [fold]
UUGA | 1.03
CACU | 1.11
